{"data": "Measurements gathered from unrelated publications", "note": "Each numbered part is a random draw from the data of one study; scales do not carry over between parts. Values joined by “and” are separate records of one study, mostly repeats; a detail may differ. pIC50: −log10 of the molar value.", "sequence of UniProt P07948 (whole entry, looked up)": "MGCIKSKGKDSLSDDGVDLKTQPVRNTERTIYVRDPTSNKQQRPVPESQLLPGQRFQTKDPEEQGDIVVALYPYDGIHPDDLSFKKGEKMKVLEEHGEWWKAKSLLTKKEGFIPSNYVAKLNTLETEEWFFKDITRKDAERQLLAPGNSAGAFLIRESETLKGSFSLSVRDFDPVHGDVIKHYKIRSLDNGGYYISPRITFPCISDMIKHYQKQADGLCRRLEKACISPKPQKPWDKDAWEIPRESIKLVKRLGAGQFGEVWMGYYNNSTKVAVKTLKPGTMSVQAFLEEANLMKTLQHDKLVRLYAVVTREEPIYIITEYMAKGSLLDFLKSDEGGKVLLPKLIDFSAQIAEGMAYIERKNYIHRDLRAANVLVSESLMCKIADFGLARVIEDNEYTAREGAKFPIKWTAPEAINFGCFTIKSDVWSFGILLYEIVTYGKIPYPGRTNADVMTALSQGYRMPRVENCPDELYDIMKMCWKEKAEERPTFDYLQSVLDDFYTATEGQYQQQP", "sequence of UniProt P57059 (whole entry, looked up)": "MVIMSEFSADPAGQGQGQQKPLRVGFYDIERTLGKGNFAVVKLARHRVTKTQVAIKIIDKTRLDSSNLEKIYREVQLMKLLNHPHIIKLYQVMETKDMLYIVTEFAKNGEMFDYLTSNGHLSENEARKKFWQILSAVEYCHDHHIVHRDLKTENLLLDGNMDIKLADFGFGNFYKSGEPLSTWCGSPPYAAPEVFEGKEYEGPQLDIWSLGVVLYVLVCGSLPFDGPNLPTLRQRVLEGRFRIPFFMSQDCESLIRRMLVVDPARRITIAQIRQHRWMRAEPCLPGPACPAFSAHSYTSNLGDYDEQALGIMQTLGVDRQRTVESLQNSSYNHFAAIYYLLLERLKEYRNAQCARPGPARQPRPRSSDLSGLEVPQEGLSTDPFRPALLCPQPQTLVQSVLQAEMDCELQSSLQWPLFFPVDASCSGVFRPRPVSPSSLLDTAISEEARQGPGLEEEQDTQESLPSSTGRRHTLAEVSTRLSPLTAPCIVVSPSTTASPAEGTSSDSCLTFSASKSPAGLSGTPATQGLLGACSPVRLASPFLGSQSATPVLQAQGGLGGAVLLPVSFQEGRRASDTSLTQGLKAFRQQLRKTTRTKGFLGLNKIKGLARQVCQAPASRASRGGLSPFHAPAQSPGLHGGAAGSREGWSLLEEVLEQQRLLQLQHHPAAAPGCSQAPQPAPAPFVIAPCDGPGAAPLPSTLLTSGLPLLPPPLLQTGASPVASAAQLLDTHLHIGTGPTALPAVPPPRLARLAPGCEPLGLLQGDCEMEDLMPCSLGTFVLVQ", "sequence of UniProt O94921 (whole entry, looked up)": "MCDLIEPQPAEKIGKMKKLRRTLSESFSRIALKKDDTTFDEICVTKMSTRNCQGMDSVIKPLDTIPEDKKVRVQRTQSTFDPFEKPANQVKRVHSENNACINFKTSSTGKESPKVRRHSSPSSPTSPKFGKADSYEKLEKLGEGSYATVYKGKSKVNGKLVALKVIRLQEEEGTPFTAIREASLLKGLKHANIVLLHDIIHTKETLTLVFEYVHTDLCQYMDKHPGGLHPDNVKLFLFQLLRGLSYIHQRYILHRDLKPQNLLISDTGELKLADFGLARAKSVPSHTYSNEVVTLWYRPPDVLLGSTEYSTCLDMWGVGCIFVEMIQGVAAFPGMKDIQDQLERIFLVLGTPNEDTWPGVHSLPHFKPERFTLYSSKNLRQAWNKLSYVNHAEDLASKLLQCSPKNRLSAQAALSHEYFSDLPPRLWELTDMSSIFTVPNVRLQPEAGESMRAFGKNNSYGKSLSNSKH", "sequence of UniProt P07333 (whole entry, looked up)": "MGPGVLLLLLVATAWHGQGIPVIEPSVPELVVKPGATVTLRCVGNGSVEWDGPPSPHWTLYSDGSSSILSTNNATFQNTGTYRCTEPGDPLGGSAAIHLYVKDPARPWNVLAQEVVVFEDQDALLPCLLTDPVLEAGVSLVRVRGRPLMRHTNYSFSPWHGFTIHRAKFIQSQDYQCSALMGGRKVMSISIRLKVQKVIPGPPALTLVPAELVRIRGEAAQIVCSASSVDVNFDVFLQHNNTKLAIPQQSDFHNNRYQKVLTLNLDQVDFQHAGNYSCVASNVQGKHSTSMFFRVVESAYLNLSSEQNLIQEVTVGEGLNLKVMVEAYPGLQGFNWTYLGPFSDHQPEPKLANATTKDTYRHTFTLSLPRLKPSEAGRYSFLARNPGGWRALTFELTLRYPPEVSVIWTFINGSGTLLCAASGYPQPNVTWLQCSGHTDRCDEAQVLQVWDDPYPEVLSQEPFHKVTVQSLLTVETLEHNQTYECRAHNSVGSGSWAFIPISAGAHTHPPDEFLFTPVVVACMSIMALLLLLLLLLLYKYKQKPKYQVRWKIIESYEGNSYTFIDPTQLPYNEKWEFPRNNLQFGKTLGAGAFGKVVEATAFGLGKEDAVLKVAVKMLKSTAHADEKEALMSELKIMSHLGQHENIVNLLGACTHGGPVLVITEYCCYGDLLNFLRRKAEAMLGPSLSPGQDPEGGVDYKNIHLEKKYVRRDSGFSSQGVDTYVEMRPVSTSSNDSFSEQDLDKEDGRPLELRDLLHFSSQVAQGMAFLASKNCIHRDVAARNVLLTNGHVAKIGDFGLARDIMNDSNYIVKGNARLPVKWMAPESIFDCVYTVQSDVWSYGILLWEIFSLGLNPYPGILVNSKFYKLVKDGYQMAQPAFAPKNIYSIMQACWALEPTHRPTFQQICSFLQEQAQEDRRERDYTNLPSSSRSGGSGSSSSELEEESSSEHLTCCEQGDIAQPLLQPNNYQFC", "sequence of UniProt Q8NEB9 (whole entry, looked up)": "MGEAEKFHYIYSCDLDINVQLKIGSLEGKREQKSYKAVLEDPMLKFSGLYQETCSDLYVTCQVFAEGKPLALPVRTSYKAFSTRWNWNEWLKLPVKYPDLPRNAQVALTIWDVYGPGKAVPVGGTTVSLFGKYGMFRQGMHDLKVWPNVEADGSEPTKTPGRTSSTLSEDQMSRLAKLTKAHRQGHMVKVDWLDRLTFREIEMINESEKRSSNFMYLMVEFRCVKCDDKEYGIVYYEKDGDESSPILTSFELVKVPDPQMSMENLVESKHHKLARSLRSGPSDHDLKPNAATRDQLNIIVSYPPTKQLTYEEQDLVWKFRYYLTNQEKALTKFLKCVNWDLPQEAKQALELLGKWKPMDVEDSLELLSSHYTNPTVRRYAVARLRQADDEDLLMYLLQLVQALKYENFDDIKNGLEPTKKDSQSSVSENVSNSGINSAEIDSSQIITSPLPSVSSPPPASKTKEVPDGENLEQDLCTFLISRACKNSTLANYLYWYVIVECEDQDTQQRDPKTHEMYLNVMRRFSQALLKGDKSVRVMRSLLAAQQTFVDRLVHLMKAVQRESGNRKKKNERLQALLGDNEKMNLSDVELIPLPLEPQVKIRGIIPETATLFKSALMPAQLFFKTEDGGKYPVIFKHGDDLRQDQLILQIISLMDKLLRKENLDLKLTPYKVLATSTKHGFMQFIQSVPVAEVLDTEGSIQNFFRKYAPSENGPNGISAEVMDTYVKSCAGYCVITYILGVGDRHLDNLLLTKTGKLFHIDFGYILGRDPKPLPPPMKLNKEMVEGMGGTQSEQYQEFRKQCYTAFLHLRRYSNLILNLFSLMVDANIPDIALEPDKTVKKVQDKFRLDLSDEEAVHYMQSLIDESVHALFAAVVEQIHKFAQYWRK", "sequence of UniProt P11802 (whole entry, looked up)": "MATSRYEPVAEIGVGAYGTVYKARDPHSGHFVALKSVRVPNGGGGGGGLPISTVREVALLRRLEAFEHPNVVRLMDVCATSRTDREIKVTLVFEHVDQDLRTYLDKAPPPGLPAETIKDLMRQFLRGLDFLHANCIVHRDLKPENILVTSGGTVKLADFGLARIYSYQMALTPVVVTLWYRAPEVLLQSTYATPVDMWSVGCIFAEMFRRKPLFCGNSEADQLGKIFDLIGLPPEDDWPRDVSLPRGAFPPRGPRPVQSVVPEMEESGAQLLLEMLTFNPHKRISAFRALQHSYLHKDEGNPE"}
{"data": "Series 1", "host": "human", "medium": "microsomes or S9", "concentration": "2 µM", "time": "0.5 h"}
{"SMILES": "CCOc1ccccc1CN1CCN(Cc2c[nH]c3nccnc23)C(C)C1 (centres unmarked)", "remaining compound [%]": 42.1}
{"SMILES": "O=C(NC1CCOCC1)N1CCC(CCc2ccc(O)cc2)CC1", "remaining compound [%]": "> 100"}
{"SMILES": "O=c1[nH]cccc1-c1nc(-c2cccc(Br)c2)no1", "remaining compound [%]": 66.9}
{"SMILES": "Cc1ccc(C(C)C)c(OCCNS(C)(=O)=O)c1", "remaining compound [%]": 60}
{"SMILES": "CC(CCc1ccccc1)NC(=O)c1noc(-c2ccc[nH]c2=O)n1 (centres unmarked)", "remaining compound [%]": "> 99"}
{"SMILES": "CC(C)(C)C(=O)/C=C1\\NCCN\\C1=C/C(=O)C(C)(C)C", "remaining compound [%]": 53.7}
{"data": "Series 2", "SMILES": "C=CCc1ccc(O)c(-c2cc(CC=C)ccc2O)c1", "effect on": "chloride current", "technique": "whole-cell voltage clamp", "ANO1 del476-501/M544I": "Anoctamin-1 (ANO1, Homo sapiens, UniProt Q5XXA6, del476-501/M544I)", "sequence of UniProt Q5XXA6 (whole entry, unmodified, looked up)": "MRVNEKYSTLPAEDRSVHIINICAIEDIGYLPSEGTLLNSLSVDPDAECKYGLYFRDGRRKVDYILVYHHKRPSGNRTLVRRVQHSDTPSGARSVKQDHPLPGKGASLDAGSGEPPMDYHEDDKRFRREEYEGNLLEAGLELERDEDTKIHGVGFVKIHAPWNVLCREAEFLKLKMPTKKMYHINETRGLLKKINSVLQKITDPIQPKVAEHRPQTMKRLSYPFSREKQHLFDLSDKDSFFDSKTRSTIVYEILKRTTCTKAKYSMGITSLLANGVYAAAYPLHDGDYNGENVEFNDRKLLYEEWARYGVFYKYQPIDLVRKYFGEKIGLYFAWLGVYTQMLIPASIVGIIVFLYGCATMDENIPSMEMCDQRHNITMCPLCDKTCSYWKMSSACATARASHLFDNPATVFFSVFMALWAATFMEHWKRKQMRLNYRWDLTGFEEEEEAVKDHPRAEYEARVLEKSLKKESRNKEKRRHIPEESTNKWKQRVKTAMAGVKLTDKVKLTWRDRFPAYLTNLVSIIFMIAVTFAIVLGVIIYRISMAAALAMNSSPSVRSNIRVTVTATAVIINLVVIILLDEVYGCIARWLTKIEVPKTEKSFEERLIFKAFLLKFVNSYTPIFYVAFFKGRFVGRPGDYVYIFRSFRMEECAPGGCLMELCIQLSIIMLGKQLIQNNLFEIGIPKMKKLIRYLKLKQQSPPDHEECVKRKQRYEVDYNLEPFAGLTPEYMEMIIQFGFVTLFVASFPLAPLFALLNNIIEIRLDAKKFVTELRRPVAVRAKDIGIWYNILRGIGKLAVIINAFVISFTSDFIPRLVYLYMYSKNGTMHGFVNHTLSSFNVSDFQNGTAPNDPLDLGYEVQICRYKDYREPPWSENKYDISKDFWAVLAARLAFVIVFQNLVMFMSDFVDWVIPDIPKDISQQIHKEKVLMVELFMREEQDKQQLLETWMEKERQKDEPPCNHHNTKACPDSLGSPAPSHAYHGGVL"}
{"target": "Anoctamin-1 (ANO1, Homo sapiens, UniProt Q5XXA6, del476-501)", "setting": "membrane voltage 80 mV", "added": "300 nM Ca2+", "pIC50": 4.61}
{"target": "Anoctamin-1 (ANO1, Homo sapiens, UniProt Q5XXA6, D383A/del476-501)", "setting": "membrane voltage -60 mV", "pIC50": 4.54}
{"target": "ANO1 del476-501/M544I", "action": "inhibitor", "concentration": "40 mV holding voltage", "pIC50": 3.64}
{"target": "Anoctamin-1 (ANO1, Homo sapiens, UniProt Q5XXA6, del476-501/M544V)", "action": "inhibitor", "concentration": "60 mV holding voltage", "pIC50": 3.97}
{"target": "ANO1 del476-501/M544I", "action": "inhibitor", "concentration": "20 mV holding voltage", "pIC50": 3.61}
{"data": "Series 3", "Structure (SMILES)": "COc1ccc2c(O[C@@H]3C[C@H]4C(=O)N[C@]5(C(=O)O)CC5/C=C\\CCCCC[C@H](NC(=O)OC5CCCC5)C(=O)N4C3)cc(-c3csc(NC(=O)C(C)C)n3)nc2c1C (some centres unmarked)", "concentration": "1 µM"}
{"target": "FLT3 (Homo sapiens, UniProt P36888, ITD)", "effect on": "cell-free assay", "technique": "competition with immobilised ligand", "remaining binding [%]": 97}
{"target": "SIK1 (Homo sapiens, UniProt P57059)", "technique": "competition binding", "remaining binding [%]": 100}
{"target": "RIPK4 (Homo sapiens, UniProt P57078)", "effect on": "cell-free assay", "technique": "competition with immobilised ligand", "remaining binding [%]": 65}
{"target": "Cyclin-dependent kinase 4, with cyclin D3 (CDK4, Homo sapiens, UniProt P11802)", "effect on": "cell-free assay", "technique": "competition with immobilised ligand", "remaining binding [%]": 88}
{"target": "ABL2 (Homo sapiens, UniProt P42684)", "effect on": "cell-free assay", "technique": "competition with immobilised ligand", "remaining binding [%]": 98}
{"target": "Macrophage colony-stimulating factor 1 receptor, autoinhibited (CSF1R, Homo sapiens, UniProt P07333)", "effect on": "cell-free assay", "technique": "competition with immobilised ligand", "remaining binding [%]": 89}
{"target": "FLT3 (Homo sapiens, UniProt P36888, D835Y)", "effect on": "cell-free assay", "technique": "competition with immobilised ligand", "remaining binding [%]": 87}
{"target": "PIK3C3 (Homo sapiens, UniProt Q8NEB9)", "effect on": "cell-free assay", "technique": "competition with immobilised ligand", "remaining binding [%]": 100}
{"target": "EGFR (Homo sapiens, UniProt P00533, L858R/T790M)", "effect on": "cell-free assay", "technique": "competition with immobilised ligand", "remaining binding [%]": 100}
{"target": "CDK14 (Homo sapiens, UniProt O94921)", "effect on": "cell-free assay", "technique": "competition with immobilised ligand", "remaining binding [%]": 88}
{"target": "LYN (Homo sapiens, UniProt P07948)", "effect on": "cell-free assay", "technique": "competition with immobilised ligand", "remaining binding [%]": 94}
{"data": "Further values, each from its own experiment"}
{"SMILES": "COc1ccc(Oc2cc(NCCC(F)(F)F)c3ncc(-c4ccc(C(=O)NC5CC5)c(C)c4)n3n2)c(F)c1F", "cell line": "NCI-H1048", "technique": "Vi-Cell", "concentration": "6 nM", "time": "3 d", "reference": "DMSO", "endpoint": "cell count", "result": "0.51 and 0.564"}
